Published values pooled from the literature.
Compare with care: the assays were run in different laboratories. ± marks the error that the study gave. ≈ marks a conversion by molar mass, not a printed value.

By UniProt entry, the sequences of proteins in these tests, tags left out.
UniProt P49841, whole entry: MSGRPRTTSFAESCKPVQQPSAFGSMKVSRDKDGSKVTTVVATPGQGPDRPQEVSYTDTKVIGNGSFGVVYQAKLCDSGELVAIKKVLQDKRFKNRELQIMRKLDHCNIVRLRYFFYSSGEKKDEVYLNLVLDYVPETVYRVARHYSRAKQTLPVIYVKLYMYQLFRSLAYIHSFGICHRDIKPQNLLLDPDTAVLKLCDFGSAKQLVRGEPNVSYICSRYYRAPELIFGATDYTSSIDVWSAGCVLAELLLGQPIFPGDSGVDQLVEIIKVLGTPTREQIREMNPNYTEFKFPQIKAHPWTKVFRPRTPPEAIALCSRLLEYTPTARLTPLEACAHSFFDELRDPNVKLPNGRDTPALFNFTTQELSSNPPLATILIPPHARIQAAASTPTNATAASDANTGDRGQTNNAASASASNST
UniProt Q9BXA6, whole entry: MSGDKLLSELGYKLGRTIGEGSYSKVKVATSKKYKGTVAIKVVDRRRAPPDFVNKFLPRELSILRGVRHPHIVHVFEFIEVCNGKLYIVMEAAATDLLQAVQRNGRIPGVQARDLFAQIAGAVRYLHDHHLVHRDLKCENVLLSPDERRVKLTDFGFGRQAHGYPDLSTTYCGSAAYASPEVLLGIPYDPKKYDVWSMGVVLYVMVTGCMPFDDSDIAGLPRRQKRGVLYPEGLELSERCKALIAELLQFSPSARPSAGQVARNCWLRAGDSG

COC(=O)[C@@]12OC[C@]34[C@H]([C@@H](O)[C@@H]1O)[C@@]1(C)CC(=O)C(OC(=O)C[C@H](C)N)=C(C)[C@@H]1C[C@H]3OC(=O)[C@H](OC(=O)C=C(C)C)[C@@H]24  maximum safe dose (NOD/SCID mouse, male; 24 days, every other day, combination 5 and 10 mg/kg): ≤ 10 mg/kg
CO[C@]12CC[C@@]3(C[C@@H]1C(C)(C)O)[C@H]1Cc4ccc(O)c5c4[C@@]3(CCN1CC1CC1)[C@H]2O5  logD (shake-flask; n-octanol/phosphate buffer; pH 7.4): 2.25 ± 0.02
CCCCCCCCCCCCCCCC(=O)NCCCC[C@H](NC(=O)CNC(=O)[C@H](CO)NC(=O)CNC(=O)[C@@H](NC(=O)[C@H](CO)NC(=O)[C@H](CC(=O)O)NC(=O)[C@H](CC(C)C)NC(=O)[C@@H](NC(=O)[C@H](CCCCN)NC(=O)[C@H](CC(N)=O)NC(=O)[C@H](CO)NC(=O)[C@H](CCCNC(=N)N)NC(=O)[C@H](CCCNC(=N)N)NC(=O)[C@@H](NC(=O)[C@H](Cc1c[nH]c2ccccc12)NC(=O)[C@H](CCC(=O)O)NC(=O)[C@H](CCCCN)NC(=O)[C@H](CO)NC(=O)[C@H](CCC(=O)O)NC(=O)[C@H](CCC(=O)O)NC(=O)[C@H](CC(C)C)NC(=O)[C@H](CC(=O)O)NC(=O)[C@H](CO)NC(=O)[C@H](CCCCN)NC(=O)[C@@H](NC(=O)[C@H](CCCCN)NC(=O)[C@H](CC(N)=O)NC(=O)[C@H](CC(C)C)NC(=O)[C@@H](NC(=O)[C@@H](NC(=O)[C@H](CO)NC(=O)[C@@H](NC(=O)[C@H](CC(=O)O)NC(=O)[C@@H](NC(=O)[C@@H]1CCCN1C(=O)[C@H](CC(=O)O)NC(=O)[C@H](CC(C)C)NC(=O)[C@H](C)NC(=O)[C@@H](N)C(C)C)[C@@H](C)CC)[C@@H](C)CC)[C@@H](C)CC)C(C)C)[C@@H](C)CC)[C@@H](C)CC)[C@@H](C)CC)[C@@H](C)CC)C(=O)O  solubility (PBS): 2190 ± 400 µg/mL (≈ 464 µM)
CC#C/C(=N\OC[C@H]1COCCN1)c1ccc2ncnc(Nc3ccc(OCc4cccc(F)c4)c(Cl)c3)c2c1  inhibition (GSK3B (Homo sapiens, UniProt P49841); kinase activity; 10 µM): 25.6%
CCN1CCN(Cc2ccc(NC(=O)c3ccc(C)c(/C=C/c4cnc5[nH]ccc5c4OC)c3)cc2C(F)(F)F)CC1  log2 fold change (TSSK6 (Homo sapiens, UniProt Q9BXA6); kinase-CDC37 interaction, inhibitor; human cells; 5 µM; relative to: vehicle): 0.708
cisplatin  solubility (water): 2500 µg/mL
CC[C@@H](C(N)=O)N1CCCC1=O  Tmax (Sprague Dawley rat, brain; intraperitoneal, 800 mg/kg): 60 min
Cc1cc(N(CCOS(C)(=O)=O)CCOS(C)(=O)=O)ccc1C(=O)O  half-life (chemical stability; PBS; 10 µg/mL): 4 min
CCCCCCCCCCCCCCCC(=O)NCCCC[C@H](NC(=O)CNC(=O)[C@H](CO)NC(=O)CNC(=O)[C@H](CCC(N)=O)NC(=O)[C@H](Cc1c[nH]cn1)NC(=O)[C@H](Cc1c[nH]c2ccccc12)NC(=O)[C@H](CC(N)=O)NC(=O)CNC(=O)[C@@H](NC(=O)[C@H](CO)NC(=O)[C@H](CC(=O)O)NC(=O)[C@H](CC(C)C)NC(=O)[C@@H](NC(=O)[C@H](CCCCN)NC(=O)[C@H](CC(N)=O)NC(=O)[C@H](CO)NC(=O)[C@H](CCCNC(=N)N)NC(=O)[C@H](CCCNC(=N)N)NC(=O)[C@@H](NC(=O)[C@H](Cc1c[nH]c2ccccc12)NC(=O)[C@H](CCC(=O)O)NC(=O)[C@H](CCCCN)NC(=O)[C@H](CO)NC(=O)[C@H](CCC(=O)O)NC(=O)[C@H](CCC(=O)O)NC(=O)[C@H](CC(C)C)NC(=O)[C@H](CC(=O)O)NC(=O)[C@H](CO)NC(=O)[C@H](CCCCN)NC(=O)[C@@H](NC(=O)[C@H](CCCCN)NC(=O)[C@H](CC(N)=O)NC(=O)[C@H](CC(C)C)NC(=O)[C@@H](NC(=O)[C@@H](NC(=O)[C@H](CO)NC(=O)[C@@H](NC(=O)[C@H](CC(=O)O)NC(=O)[C@@H](NC(=O)[C@@H]1CCCN1C(=O)[C@H](CC(=O)O)NC(=O)[C@H](CC(C)C)NC(=O)[C@H](C)NC(=O)[C@@H](N)C(C)C)[C@@H](C)CC)[C@@H](C)CC)[C@@H](C)CC)C(C)C)[C@@H](C)CC)[C@@H](C)CC)[C@@H](C)CC)[C@@H](C)CC)C(=O)O  solubility (water): 7520 ± 410 µg/mL (≈ 1410 µM)
C[C@H](Cc1ccc(O)c(O)c1)[C@@H](C)Cc1ccc(O)c(O)c1  solubility (ethanol; 24 h, room temperature): > 100000 µg/mL
CO[C@]12CC[C@@]3(C[C@@H]1[C@](C)(O)C(C)(C)C)[C@H]1Cc4ccc(O)c5c4[C@@]3(CCN1)[C@H]2O5  onset of respiratory rate reduction (Swiss-Webster mouse; subcutaneous, 1 mg/kg): 10 min
C[C@H](NC(=O)[C@@H]1CCCN1C(=O)[C@H](CC(N)=O)NC(=O)[C@H](Cc1c[nH]c2ccccc12)NC(=O)[C@@H]1CSSC[C@H](NC(=O)CN)C(=O)N1)C(=O)N[C@H]1CSSC[C@@H](C(N)=O)NC(=O)[C@H](Cc2ccc(O)cc2)NC(=O)[C@H](Cc2c[nH]cn2)NC(=O)[C@H](CCCCN)NC(=O)CNC1=O  degradation to non-isomer products (RP-HPLC; mouse serum 25%; 50 µM, 6 h, 37 °C): 58.3 ± 0.42%
Cc1cc(N(CCOS(C)(=O)=O)CCOS(C)(=O)=O)ccc1C(=O)O  half-life (mouse, plasma; iv, 20 mg/kg): 55 min
CC(C)C[C@H](NC(=O)[C@@H]1C[C@@H](O)CN1C(=O)[C@H](Cc1ccccc1)NC(=O)[C@H](CO)NC(=O)[C@H](C)NC(=O)[C@H](Cc1ccccc1)NC(=O)[C@@H](NC(=O)[C@H](CCC(=O)O)NC(=O)[C@H](Cc1c[nH]cn1)NC(=O)[C@@H](NC(=O)[C@@H](NC(=O)[C@H](CCC(N)=O)NC(=O)[C@H](C)NC(=O)[C@@H](N)CC(=O)O)[C@@H](C)O)C(C)C)C(C)C)C(=O)N[C@@H](CC(=O)O)C(=O)N[C@@H](CO)C(=O)N[C@@H](CC(=O)O)C(=O)NCC(=O)N[C@H]1CSSC[C@@H]2NC(=O)[C@H](C)NC(=O)[C@@H]3CCCN3C(=O)[C@H](CC(N)=O)NC(=O)[C@H](Cc3c[nH]c4ccccc34)NC(=O)[C@H](CSSC[C@@H](C(N)=O)NC(=O)[C@H](Cc3ccc(O)cc3)NC(=O)[C@H](Cc3c[nH]cn3)NC(=O)[C@H](CCCCN)NC(=O)CNC2=O)NC1=O  remaining peptide (RP-HPLC; mouse serum 25% in water; 50 µM, 24 h, 37 °C): 8.34 ± 2.29%
CCCSc1nc(N[C@@H]2C[C@H]2c2ccc(F)c(F)c2)c2nnn([C@@H]3C[C@H](OCCO)[C@@H](O)[C@H]3O)c2n1  plasma concentration (STEMI patients, plasma; 180 mg loading dose, 2 h, together with: morphine): 108 ± 247 ng/mL
C=C(C)[C@@H]1[C@H]2OC(=O)[C@@H]1[C@]1(O)C[C@H]3O[C@]34C(=O)O[C@H]2[C@]14C  mice with seizures (male NIH-NCI Swiss mice; intraperitoneal, 2 mg/kg, Racine score 3 to 5): 75%
O=C(O)c1cc(-c2ccc(-c3cc(CO)on3)cc2)c2ccc(-c3ccc(C(F)(F)F)cc3)cc2c1  MRT(0-t) (rat Wistar male; intraperitoneal, 10 mg/kg, 24 h): 301 min
CC[C@@H](C(N)=O)N1CCCC1=O  Cmax (LC-MS/MS; rat, control, whole blood; intramuscular, 50 mg/kg levetiracetam, together with: atropine 5 mg/kg): 28000 ng/mL
